{"data": "Published values from different studies", "note": "Compare with care: the assays were run in different laboratories. ± gives the spread as reported."}
{"SMILES": "Cc1cc(C)c(N2CCN(c3c(C)cc(C)cc3C)C2=[Se])c(C)c1.[Cl][Ag]", "cell line": "LoVo MDR", "assay": "MTT", "setting": "72 h", "IC50": "1.4 ± 0.6 µM"}
{"SMILES": "CC(C)C[C@H](NC(=O)[C@H](CC(C)C)NC(=O)[C@H](CCC(=O)O)NC(=O)[C@H](Cc1c[nH]cn1)NC(=O)[C@H](CC(C)C)NC(=O)[C@H](Cc1c[nH]cn1)NC(=O)[C@H](CCC(=O)O)NC(=O)[C@H](CC(C)C)NC(=O)[C@H](CC(C)C)NC(=O)[C@H](CCC(=O)O)NC(=O)[C@H](Cc1c[nH]cn1)NC(=O)[C@@H](N)CC(C)C)C(=O)N[C@@H](CCC(=O)O)C(=O)N[C@@H](Cc1c[nH]cn1)C(N)=O", "cell line": "HK-2", "assay": "cell growth or viability, MTT", "setting": "pH 6", "IC50": "> 100 µM"}
{"SMILES": "O=C(Nc1ccc(Br)cc1)c1cc(Br)cc(Br)c1O", "cell line": "LNCaP", "assay": "cell growth or viability, resazurin", "setting": "72 h", "IC50": "4.84 µM"}
{"SMILES": "N.N.O=C([O][Pt]([Cl])([Cl])[O]C(=O)c1ccc(P(c2ccccc2)c2ccccc2)cc1)c1ccc(P(c2ccccc2)c2ccccc2)cc1.[Cl][Au].[Cl][Au]", "cell line": "IMR-90", "assay": "cell growth or viability, resazurin", "setting": "72 h", "IC50": "30.1 µM"}
{"SMILES": "C[C@H]1[C@H](OC(=O)CCC(=O)O[C@H]2CO[C@H]3[C@@H]2OC[C@H]3O[N+](=O)[O-])O[C@@H]2O[C@@]3(C)CC[C@H]4[C@H](C)CC[C@@H]1[C@@]24OO3", "cell line": "K562/Adr", "assay": "cell growth or viability, CCK-8", "setting": "72 h", "IC50": "6.63 µM"}
{"SMILES": "C#CCN[C@@H]1C=C[C@]2(O[C@H]([C@@H](CC)C(=O)[C@@H](C)[C@@H](O)[C@H](C)[C@@H]3O[C@@H]([C@@H](CC)C(=O)O)CC[C@@H]3C)[C@@H](C)C[C@H]2C)O[C@@]12CC[C@@](C)([C@H]1CC[C@](O)(CC)[C@H](C)O1)O2", "cell line": "HMLER CD24high/CD44low", "assay": "CellTiter-Blue", "setting": "72 h", "IC50": "2.28 ± 0.16 µM"}
{"SMILES": "CCOP(=O)(OCC)OCCCCOC(=O)CC1=C(C)C(=Cc2ccc([S+](C)[O-])cc2)c2ccc(F)cc21 (centres unmarked)", "cell line": "A549 mock siRNA-transfected", "assay": "cell viability", "setting": "24 h", "IC50": "95 µM"}
{"SMILES": "O=C(Cc1ccc2ccccc2c1)N[C@H](Cc1ccc(O)cc1)C(=O)N[C@H](Cc1ccccc1)C(=O)N[C@H](Cc1ccccc1)C(=O)N[C@H](Cc1ccc(O)cc1)C(=O)O", "cell line": "HS5", "assay": "cell growth or viability, MTT", "IC50": "> 500 µg/mL"}
{"SMILES": "Cc1cc(C)c(-n2ccn(-c3c(C)cc(C)cc3C)c2=[Se])c(C)c1.[Cl][Ag]", "cell line": "A2780", "assay": "cell growth or viability", "setting": "72 h, 3D culture", "IC50": "17.4 µM"}
{"SMILES": "O=C(Cc1ccc2ccccc2c1)N[C@H](Cc1ccc(O)cc1)C(=O)N[C@H](Cc1ccccc1)C(=O)N[C@H](Cc1ccccc1)C(=O)N[C@H](Cc1ccc(OP(=O)(O)O)cc1)C(=O)O", "cell line": "HS5", "assay": "cell growth or viability, MTT", "IC50": "> 443 µg/mL"}
{"SMILES": "NC1CC1c1ccc(NC(=O)C(CCc2ccccc2)NC(=O)OCc2ccccc2)cc1 (centres unmarked)", "cell line": "MV4-11 (AML)", "IC50": "8.7 ± 0.9 µM"}
{"SMILES": "C[C@H]1[C@H](OC(=O)CCC(=O)OCCc2ccc(OC(=O)CCC(=O)O[C@@H]3O[C@@H]4O[C@@]5(C)CC[C@H]6[C@H](C)CC[C@@H]([C@H]3C)[C@@]46OO5)cc2)O[C@@H]2O[C@@]3(C)CC[C@H]4[C@H](C)CC[C@@H]1[C@@]24OO3", "cell line": "RPMI-7951", "assay": "cell growth or viability, MTT", "setting": "24 h", "IC50": "0.49 µM"}
{"SMILES": "CC(C)C[C@H](NC(=O)[C@H](CC(C)C)NC(=O)[C@H](CC(=O)O)NC(=O)[C@H](CCCCN)NC(=O)[C@H](Cc1ccccc1)NC(=O)CN)C(=O)N[C@@H](CCCCN)C(=O)N[C@H]1CSCc2ccccc2CSC[C@@H](C(=O)N[C@@H](CC(C)C)C(=O)N[C@H](C(=O)N[C@@H](CCCCN)C(=O)N[C@H](C(=O)N[C@H](C(=O)N[C@@H](CC(C)C)C(=O)N[C@@H](Cc2ccccc2)C(N)=O)C(C)C)[C@@H](C)O)C(C)C)NC(=O)[C@H](CCCCN)NC(=O)[C@H](C)NC(=O)[C@H](C)NC1=O", "cell line": "U87", "assay": "cell proliferation, CCK-8", "setting": "48 h", "IC50": "4.63 µM"}
{"SMILES": "O=C(Cc1ccc2ccccc2c1)N[C@H](Cc1ccccc1)C(=O)N[C@H](Cc1ccccc1)C(=O)N[C@H](Cc1ccc(O)cc1)C(=O)N[C@H](Cc1ccc(O)cc1)C(=O)O", "cell line": "HS5", "assay": "cell growth or viability, MTT", "IC50": "> 500 µg/mL"}
{"SMILES": "CC(C)C[C@H](NC(=O)[C@H](CC(C)C)NC(=O)[C@H](Cc1c[nH]cn1)NC(=O)[C@H](CCC(=O)O)NC(=O)[C@H](CC(C)C)NC(=O)[C@H](Cc1c[nH]cn1)NC(=O)[C@H](CCC(=O)O)NC(=O)[C@H](CC(C)C)NC(=O)[C@H](CC(C)C)NC(=O)[C@H](Cc1c[nH]cn1)NC(=O)[C@H](CCC(=O)O)NC(=O)[C@@H](N)CC(C)C)C(=O)N[C@@H](CCC(=O)O)C(=O)N[C@@H](Cc1c[nH]cn1)C(N)=O", "cell line": "HK-2", "assay": "cell growth or viability, MTT", "setting": "pH 7.4", "IC50": "> 100 µM"}
{"SMILES": "O=C(N=P12CN3CN(CN(C3)C1)C2)c1cccc[c]1[Pd]([Br])([PH]12CN3CN(CN(C3)C1)C2)[PH]12CN3CN(CN(C3)C1)C2", "cell line": "human PBMC", "assay": "cytotoxicity, MTT", "setting": "24 h, 1% DMSO", "IC50": "> 500 µM"}
{"SMILES": "C=C(C)CC(OC)C(O)C(=O)NC(OC)C1CC(OC(=O)c2ccccc2)C(C)(C)C(CC(O)C(C)C2Cc3c(C)c(O)cc(O)c3C(=O)O2)O1 (single isomer, unassigned; (-))", "cell line": "A2058", "assay": "cell growth or viability", "IC50": "0.0027 µM"}
{"SMILES": "COc1cc(C(c2c(C)nn(-c3ccccc3)c2O)c2c(C)nn(-c3ccccc3)c2O)cc(OC)c1OC", "cell line": "HEK293", "assay": "cell growth or viability, MTT", "setting": "48 h", "IC50": "> 40 µM"}
{"SMILES": "[Cl][Ag].[Se]=c1n(C2CCCCC2)ccn1C1CCCCC1", "cell line": "A-431", "assay": "cell growth or viability, MTT", "setting": "72 h", "IC50": "4.1 µM"}
{"SMILES": "O=C1C(Cl)=C(Cl)C(=O)c2ccccc21", "cell line": "MOLT-3", "assay": "cell growth or viability, XTT", "setting": "48 h", "IC50": "3.61 µM"}
{"SMILES": "CC(C)C[C@H](NC(=O)[C@H](C)NC(=O)[C@H](CCCCN)NC(=O)[C@H](C)NC(=O)[C@H](C)NC(=O)[C@@H]1CSCc2ccccc2CSC[C@H](NC(=O)[C@H](CCCCN)NC(=O)[C@H](Cc2ccccc2)NC(=O)CN)C(=O)N[C@@H](CC(C)C)C(=O)N[C@@H](CC(C)C)C(=O)N[C@@H](CCCCN)C(=O)N1)C(=O)N[C@H](C(=O)N[C@@H](CCCCN)C(=O)N[C@H](C(=O)N[C@H](C(=O)N[C@@H](CC(C)C)C(=O)N[C@@H](Cc1ccccc1)C(N)=O)C(C)C)[C@@H](C)O)C(C)C", "cell line": "U87", "assay": "cell proliferation, CCK-8", "setting": "48 h", "IC50": "16 µM"}
{"SMILES": "CC[C@H](C)[C@@H]1NC(=O)[C@H](CCCNC(=N)N)NC(=O)C[C@@H](c2cccc3ccccc23)NC(=O)[C@@H]2CSSC[C@H](NC(=O)C[C@@H](c3cccc4ccccc34)NC(=O)[C@H](CCCNC(=N)N)NC(=O)[C@@H]3CCCN3C(=O)[C@@H]3CCCN3C1=O)C(=O)N[C@@H](Cc1ccccc1)C(=O)N1CCC[C@H]1C(=O)N[C@@H](CC(=O)O)C(=O)N[C@@H](CC(=O)O)C(=O)N[C@@H](Cc1ccccc1)C(=O)N2", "cell line": "MCF7 (HER2-)", "assay": "cell growth", "setting": "72 h", "IC50": "> 20 µM"}
{"SMILES": "CC(C)C[C@H](NC(=O)[C@H](CC(C)C)NC(=O)[C@H](CCC(=O)O)NC(=O)[C@H](CCC(=O)O)NC(=O)[C@H](CC(C)C)NC(=O)[C@H](Cc1c[nH]cn1)NC(=O)[C@H](Cc1c[nH]cn1)NC(=O)[C@H](CC(C)C)NC(=O)[C@H](CC(C)C)NC(=O)[C@H](CCC(=O)O)NC(=O)[C@H](CCC(=O)O)NC(=O)[C@@H](N)CC(C)C)C(=O)N[C@@H](Cc1c[nH]cn1)C(=O)N[C@@H](Cc1c[nH]cn1)C(N)=O", "cell line": "HK-2", "assay": "cell growth or viability, MTT", "setting": "pH 7.4", "IC50": "> 100 µM"}
{"SMILES": "COc1ccc(-c2oc3c(CC=C(C)C)c(O[C@@H]4O[C@H](CO)[C@@H](O)[C@H](O)[C@H]4O)cc(O)c3c(=O)c2O[C@@H]2O[C@@H](C)[C@H](O)[C@@H](O)[C@H]2O[C@@H]2O[C@@H](C)[C@H](O)[C@@H](O)[C@H]2O)cc1", "cell line": "HEK293T", "assay": "cell viability, MTT", "setting": "48 h", "IC50": "> 100 µM"}
{"SMILES": "C=C(C)C[C@H](OC)[C@H](O)C(=O)N[C@@H](OC)[C@@H]1C[C@H](O)C(C)(C)[C@@H](C[C@H](O)[C@@H](C)[C@H]2Cc3c(C)c(O)cc(O)c3C(=O)O2)O1", "cell line": "IMR-90", "assay": "cell growth or viability", "IC50": "0.034 µM"}
{"SMILES": "CC(C)C[C@H](NC(=O)[C@H](CCCCN)NC(=O)[C@H](CC(C)C)NC(=O)[C@H](CC(C)C)NC(=O)[C@H](CCCCN)NC(=O)[C@H](CCCCN)NC(=O)[C@H](CC(C)C)NC(=O)[C@H](CC(C)C)NC(=O)[C@H](CCCCN)NC(=O)[C@H](CC(C)C)NC(=O)[C@H](CC(C)C)NC(=O)[C@H](CCCCN)NC(=O)[C@H](CCCCN)NC(=O)[C@@H](N)CC(C)C)C(N)=O", "cell line": "HK-2", "assay": "cell growth or viability, MTT", "setting": "pH 6", "IC50": "9 µM"}
{"SMILES": "C1=CCCC=CCC1.C1=CCCC=CCC1.O=C(N=P12CN3CN(CN(C3)C1)C2)c1cccc[c]1[Pt+].O=C(N=P12CN3CN(CN(C3)C1)C2)c1cccc[c]1[Pt+].[Cl][Hg-]([Cl])[Cl].[Cl][Hg-]([Cl])[Cl].[Cl][Hg][Cl].[Cl][Hg][Cl]", "cell line": "Jurkat", "assay": "cell viability, MTT", "setting": "24 h", "IC50": "2.13 ± 0.24 µM"}
{"SMILES": "C=C(C)CC(OC)C(O)C(=O)NC(OC)C1CC(=C)C(C)(C)C(CC(O)C(C)C2Cc3c(C)c(O)cc(O)c3C(=O)O2)O1 (single isomer, unassigned; (+))", "cell line": "A2058", "assay": "cell growth or viability", "IC50": "0.0007 µM"}
{"SMILES": "CC[C@@]1(O)C(=O)OCc2c1cc1n(c2=O)Cc2c-1nc1cc(F)c(C)c3c1c2[C@@H](NC(=O)CO)CC3", "cell line": "KPL4", "assay": "cell growth or viability, ATP luminescence", "setting": "5 days", "IC50": "0.004 µM"}
{"note": "For quick reference, copied from above:"}
{"SMILES": "Cc1cc(C)c(N2CCN(c3c(C)cc(C)cc3C)C2=[Se])c(C)c1.[Cl][Ag]", "cell line": "LoVo MDR", "assay": "MTT", "setting": "72 h", "IC50": "1.4 ± 0.6 µM"}
{"SMILES": "CC(C)C[C@H](NC(=O)[C@H](CC(C)C)NC(=O)[C@H](Cc1c[nH]cn1)NC(=O)[C@H](CCC(=O)O)NC(=O)[C@H](CC(C)C)NC(=O)[C@H](Cc1c[nH]cn1)NC(=O)[C@H](CCC(=O)O)NC(=O)[C@H](CC(C)C)NC(=O)[C@H](CC(C)C)NC(=O)[C@H](Cc1c[nH]cn1)NC(=O)[C@H](CCC(=O)O)NC(=O)[C@@H](N)CC(C)C)C(=O)N[C@@H](CCC(=O)O)C(=O)N[C@@H](Cc1c[nH]cn1)C(N)=O", "cell line": "HK-2", "assay": "cell growth or viability, MTT", "setting": "pH 7.4", "IC50": "> 100 µM"}
{"SMILES": "C=C(C)CC(OC)C(O)C(=O)NC(OC)C1CC(OC(=O)c2ccccc2)C(C)(C)C(CC(O)C(C)C2Cc3c(C)c(O)cc(O)c3C(=O)O2)O1 (single isomer, unassigned; (-))", "cell line": "A2058", "assay": "cell growth or viability", "IC50": "0.0027 µM"}
{"SMILES": "Cc1cc(C)c(-n2ccn(-c3c(C)cc(C)cc3C)c2=[Se])c(C)c1.[Cl][Ag]", "cell line": "A2780", "assay": "cell growth or viability", "setting": "72 h, 3D culture", "IC50": "17.4 µM"}
